Results of several laboratories.
Every numbered part comes from another study and shows a few of its results, in no order. “And” joins repeats or separate records; there may be more than shown.
UniProt P31152, sequence (whole entry, looked up): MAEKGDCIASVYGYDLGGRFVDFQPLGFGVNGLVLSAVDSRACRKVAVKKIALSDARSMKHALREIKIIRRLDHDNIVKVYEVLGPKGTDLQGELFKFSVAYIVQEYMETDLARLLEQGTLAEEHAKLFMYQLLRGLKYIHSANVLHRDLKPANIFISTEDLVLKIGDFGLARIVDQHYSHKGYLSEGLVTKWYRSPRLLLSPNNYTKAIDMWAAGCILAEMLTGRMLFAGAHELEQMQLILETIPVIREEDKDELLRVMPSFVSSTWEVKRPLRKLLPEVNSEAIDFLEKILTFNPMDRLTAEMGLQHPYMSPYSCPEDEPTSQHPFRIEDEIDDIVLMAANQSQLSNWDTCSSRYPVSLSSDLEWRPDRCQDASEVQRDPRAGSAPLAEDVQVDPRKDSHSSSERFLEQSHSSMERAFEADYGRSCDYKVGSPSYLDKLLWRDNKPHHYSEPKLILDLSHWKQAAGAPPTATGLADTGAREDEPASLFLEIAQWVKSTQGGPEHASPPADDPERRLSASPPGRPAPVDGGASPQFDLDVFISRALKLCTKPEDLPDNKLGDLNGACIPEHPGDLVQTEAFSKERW
UniProt Q9Y2I7, sequence (whole entry, looked up): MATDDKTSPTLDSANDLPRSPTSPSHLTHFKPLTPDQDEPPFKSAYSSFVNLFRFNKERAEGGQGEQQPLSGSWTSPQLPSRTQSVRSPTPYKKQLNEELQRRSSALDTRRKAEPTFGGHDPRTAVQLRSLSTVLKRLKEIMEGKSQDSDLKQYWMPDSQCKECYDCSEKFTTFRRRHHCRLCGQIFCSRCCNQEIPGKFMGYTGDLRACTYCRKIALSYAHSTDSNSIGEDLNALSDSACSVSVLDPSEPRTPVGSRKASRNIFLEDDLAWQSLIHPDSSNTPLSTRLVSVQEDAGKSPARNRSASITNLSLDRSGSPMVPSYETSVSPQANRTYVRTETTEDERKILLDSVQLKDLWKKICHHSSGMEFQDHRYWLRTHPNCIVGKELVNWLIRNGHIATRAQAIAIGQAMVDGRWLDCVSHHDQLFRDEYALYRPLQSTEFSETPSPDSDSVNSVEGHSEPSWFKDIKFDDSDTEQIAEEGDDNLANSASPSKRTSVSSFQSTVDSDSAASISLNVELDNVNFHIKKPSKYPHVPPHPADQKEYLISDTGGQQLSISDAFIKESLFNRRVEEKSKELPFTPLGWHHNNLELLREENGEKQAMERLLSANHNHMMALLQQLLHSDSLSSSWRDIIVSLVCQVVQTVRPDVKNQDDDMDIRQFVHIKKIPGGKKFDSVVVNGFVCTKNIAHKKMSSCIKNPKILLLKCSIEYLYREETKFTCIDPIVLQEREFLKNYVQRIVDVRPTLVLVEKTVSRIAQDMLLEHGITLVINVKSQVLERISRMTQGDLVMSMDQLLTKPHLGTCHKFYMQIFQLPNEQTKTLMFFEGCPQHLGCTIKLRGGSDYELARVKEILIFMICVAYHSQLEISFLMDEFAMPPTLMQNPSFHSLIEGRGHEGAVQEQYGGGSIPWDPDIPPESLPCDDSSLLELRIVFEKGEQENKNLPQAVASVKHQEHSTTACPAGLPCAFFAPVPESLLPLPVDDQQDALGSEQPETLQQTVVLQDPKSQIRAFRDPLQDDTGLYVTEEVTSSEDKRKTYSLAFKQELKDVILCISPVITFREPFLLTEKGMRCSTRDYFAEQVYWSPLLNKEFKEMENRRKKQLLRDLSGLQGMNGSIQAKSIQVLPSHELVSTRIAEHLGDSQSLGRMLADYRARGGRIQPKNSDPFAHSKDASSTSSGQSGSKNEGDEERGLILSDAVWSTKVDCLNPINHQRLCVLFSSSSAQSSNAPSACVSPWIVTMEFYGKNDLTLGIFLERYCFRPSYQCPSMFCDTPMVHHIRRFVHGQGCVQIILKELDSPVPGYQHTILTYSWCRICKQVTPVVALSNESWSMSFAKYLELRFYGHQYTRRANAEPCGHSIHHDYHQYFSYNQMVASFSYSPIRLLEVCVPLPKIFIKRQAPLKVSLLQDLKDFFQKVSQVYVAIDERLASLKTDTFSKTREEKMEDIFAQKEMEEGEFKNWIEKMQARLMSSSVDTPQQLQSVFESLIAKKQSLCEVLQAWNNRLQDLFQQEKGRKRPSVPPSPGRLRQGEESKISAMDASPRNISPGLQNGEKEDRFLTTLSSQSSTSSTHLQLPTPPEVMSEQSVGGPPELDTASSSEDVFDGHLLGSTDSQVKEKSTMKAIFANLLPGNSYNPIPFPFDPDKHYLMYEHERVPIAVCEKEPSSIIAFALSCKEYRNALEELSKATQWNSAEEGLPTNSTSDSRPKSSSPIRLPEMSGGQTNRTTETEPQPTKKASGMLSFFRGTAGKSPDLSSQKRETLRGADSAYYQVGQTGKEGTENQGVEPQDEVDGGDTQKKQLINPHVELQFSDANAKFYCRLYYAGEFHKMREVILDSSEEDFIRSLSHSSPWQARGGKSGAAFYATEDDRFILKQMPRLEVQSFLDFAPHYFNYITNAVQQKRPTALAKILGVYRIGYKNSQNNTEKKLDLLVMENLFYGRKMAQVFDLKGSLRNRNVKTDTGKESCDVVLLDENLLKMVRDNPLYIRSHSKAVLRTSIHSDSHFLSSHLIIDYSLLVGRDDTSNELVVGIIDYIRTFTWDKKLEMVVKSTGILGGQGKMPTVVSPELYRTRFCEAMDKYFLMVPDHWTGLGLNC
UniProt Q92918, sequence (whole entry, looked up): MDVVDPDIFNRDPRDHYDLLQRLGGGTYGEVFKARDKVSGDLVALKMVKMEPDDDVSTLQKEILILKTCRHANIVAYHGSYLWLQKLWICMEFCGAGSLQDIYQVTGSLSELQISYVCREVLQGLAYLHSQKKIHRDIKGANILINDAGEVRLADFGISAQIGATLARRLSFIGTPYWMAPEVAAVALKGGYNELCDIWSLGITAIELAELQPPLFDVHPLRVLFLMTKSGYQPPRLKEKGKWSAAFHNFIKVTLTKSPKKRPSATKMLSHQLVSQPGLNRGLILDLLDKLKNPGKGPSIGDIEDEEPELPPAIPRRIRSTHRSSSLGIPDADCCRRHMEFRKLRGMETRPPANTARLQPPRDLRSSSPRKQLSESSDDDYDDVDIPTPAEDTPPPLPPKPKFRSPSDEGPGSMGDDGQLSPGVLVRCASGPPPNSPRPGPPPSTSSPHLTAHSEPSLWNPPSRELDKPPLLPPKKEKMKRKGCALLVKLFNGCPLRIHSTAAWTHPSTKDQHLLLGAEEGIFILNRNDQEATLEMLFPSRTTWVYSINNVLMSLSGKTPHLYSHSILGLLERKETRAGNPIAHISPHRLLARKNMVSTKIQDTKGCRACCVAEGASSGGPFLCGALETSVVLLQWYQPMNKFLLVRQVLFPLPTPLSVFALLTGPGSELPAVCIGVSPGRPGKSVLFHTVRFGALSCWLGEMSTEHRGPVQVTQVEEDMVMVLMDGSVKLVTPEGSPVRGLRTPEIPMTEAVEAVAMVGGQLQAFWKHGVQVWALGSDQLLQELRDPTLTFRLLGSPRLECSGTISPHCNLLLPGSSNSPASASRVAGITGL
UniProt P51684, sequence (whole entry, looked up): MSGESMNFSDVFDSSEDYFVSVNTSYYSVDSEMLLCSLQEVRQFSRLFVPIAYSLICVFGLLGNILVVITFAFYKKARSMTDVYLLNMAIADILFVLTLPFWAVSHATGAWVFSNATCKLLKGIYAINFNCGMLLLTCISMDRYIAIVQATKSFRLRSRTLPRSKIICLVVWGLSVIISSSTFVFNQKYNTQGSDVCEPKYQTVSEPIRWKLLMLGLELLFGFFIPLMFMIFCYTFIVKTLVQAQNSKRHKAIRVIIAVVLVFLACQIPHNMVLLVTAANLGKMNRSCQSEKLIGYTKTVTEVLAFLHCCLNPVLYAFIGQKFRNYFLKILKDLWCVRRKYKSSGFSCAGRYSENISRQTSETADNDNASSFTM
UniProt Q06418, sequence (whole entry, looked up): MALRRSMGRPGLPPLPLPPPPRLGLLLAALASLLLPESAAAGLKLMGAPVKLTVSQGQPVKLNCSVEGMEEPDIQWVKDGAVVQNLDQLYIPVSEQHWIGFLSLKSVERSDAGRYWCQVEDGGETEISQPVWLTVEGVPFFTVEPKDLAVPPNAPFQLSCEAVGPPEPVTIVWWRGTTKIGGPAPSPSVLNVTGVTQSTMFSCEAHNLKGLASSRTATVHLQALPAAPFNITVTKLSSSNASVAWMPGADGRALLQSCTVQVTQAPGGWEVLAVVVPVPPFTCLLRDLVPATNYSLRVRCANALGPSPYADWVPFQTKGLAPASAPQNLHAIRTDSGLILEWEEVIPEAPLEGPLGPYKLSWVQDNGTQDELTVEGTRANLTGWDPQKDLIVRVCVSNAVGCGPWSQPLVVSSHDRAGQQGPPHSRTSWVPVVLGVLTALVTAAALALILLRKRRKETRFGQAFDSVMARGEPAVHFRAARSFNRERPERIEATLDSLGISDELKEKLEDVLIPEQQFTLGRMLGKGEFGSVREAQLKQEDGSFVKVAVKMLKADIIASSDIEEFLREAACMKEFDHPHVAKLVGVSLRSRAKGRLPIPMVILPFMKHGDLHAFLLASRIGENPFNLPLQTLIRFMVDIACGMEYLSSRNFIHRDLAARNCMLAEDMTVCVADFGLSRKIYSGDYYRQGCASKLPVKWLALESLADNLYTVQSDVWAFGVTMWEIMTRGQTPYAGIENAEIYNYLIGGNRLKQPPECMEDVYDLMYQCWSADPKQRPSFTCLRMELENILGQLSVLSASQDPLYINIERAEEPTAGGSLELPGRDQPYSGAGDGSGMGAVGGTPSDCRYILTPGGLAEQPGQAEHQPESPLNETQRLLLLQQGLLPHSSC

Study 1
Structure (SMILES): Cc1nc(Cc2cccc(C(F)(F)F)c2)sc1-c1ccc(C(N)=O)nc1
Technique: competition with immobilised ligand
Tested at: 1 µM
Measurement: remaining binding
MAPK4 (Homo sapiens, UniProt P31152); cell-free assay: 100%
BMPR1A (Homo sapiens, UniProt P36894); binding: 76%
TYRO3 (Homo sapiens, UniProt Q06418); cell-free assay: 99%
EPHB1 (Homo sapiens, UniProt P54762); cell-free assay: 100%
DAPK2 (Homo sapiens, UniProt Q9UIK4); cell-free assay: 89%
DYRK1A (Homo sapiens, UniProt Q13627); cell-free assay: 67%
CSNK1G2 (Homo sapiens, UniProt P78368); cell-free assay: 82%
SNRK (Homo sapiens, UniProt Q9NRH2); cell-free assay: 84%
HIPK2 (Homo sapiens, UniProt Q9H2X6); cell-free assay: 100%
MAP4K1 (Homo sapiens, UniProt Q92918); cell-free assay: 100%
PRKACA (Homo sapiens, UniProt P17612); cell-free assay: 75%
FLT3 (Homo sapiens, UniProt P36888, R834Q); cell-free assay: 92%
PIKFYVE (Homo sapiens, UniProt Q9Y2I7); cell-free assay: 75%
MAP3K11 (Homo sapiens, UniProt Q16584); cell-free assay: 100%
Tyrosine-protein kinase ABL1, non-phosphorylated (ABL1, Homo sapiens, UniProt P00519, H396P); cell-free assay: 87%
PAK2 (Homo sapiens, UniProt Q13177); cell-free assay: 60%
PI4KB (Homo sapiens, UniProt Q9UBF8); cell-free assay: 91%
KIT (Homo sapiens, UniProt P10721, T670I/V559D); cell-free assay: 91%
DAPK1 (Homo sapiens, UniProt P53355); cell-free assay: 100%
PIK3CA (Homo sapiens, UniProt P42336, H1047Y); cell-free assay: 100%
MAP3K14 (Homo sapiens, UniProt Q99558); cell-free assay: 100%
PIK3CB (Homo sapiens, UniProt P42338); cell-free assay: 83%
MAP2K2 (Homo sapiens, UniProt P36507); cell-free assay: 98%
MAK (Homo sapiens, UniProt P20794); binding: 81%
CSNK2A1 (Homo sapiens, UniProt P68400); cell-free assay: 100%

Study 2
Structure (SMILES): NC(N)=NC(=O)c1nc(Cl)c(N2CCCCCC2)nc1N
Read-out: β-arrestin recruitment
Action: agonist
Technique: PRESTO-Tango
Tested at: 10 µM
Baseline: untreated
Measurement: fold over basal
CCR6 (Homo sapiens, UniProt P51684): 0.96
Oxytocin receptor (OXTR, Homo sapiens, UniProt P30559): 1.08
ADRB3 (Homo sapiens, UniProt P13945): 0.77
SSTR4 (Homo sapiens, UniProt P31391): 1.73 fold

Study 3
Cell line: mouse MPNST tumor cells
Technique: high-content immunofluorescence imaging
Item: nuclear SOX9
Tested at: 10 µM
Time: 12 h
Notes: mean of 2 replicates
Baseline: DMSO control
Direction: higher = more nuclear SOX9
Measurement: nuclear SOX9 intensity
CN(C)CC(=O)Nc1ccc2[nH]c(=O)c3ccccc3c2c1: 154 % of DMSO
O=C(Nc1cccnc1)N1CCC(Cc2cccc(Oc3ccc(C(F)(F)F)cn3)c2)CC1: 141 % of DMSO
CS(=O)(=O)c1cccc(CNc2nc(Nc3ccc4c(c3)CCC(=O)N4)ncc2C(F)(F)F)c1: 69.6 % of DMSO
O=C(O)c1ccccc1C(=O)Nc1ccc(S(=O)(=O)Nc2nccs2)cc1: 85.7 % of DMSO

Study 4
Technique: PRP chromatography estimate
Sample: 1,9-decadiene/PBS
pH: 7.4
Measurement: logD
CCC[C@@H]1NC(=O)CSC[C@@H](C(=O)OCC)N(C)C(=O)[C@H](CC(C)C)NC(=O)[C@@H](C)N(C)C(=O)[C@@H](CC(C)C)NC(=O)[C@H](C)N(C)C(=O)[C@@H]2CCCN2C(=O)[C@H](CC(C)C)NC(=O)CN(C)C1=O: -0.429
CCOC(=O)[C@@H]1CSCC(=O)N[C@H](CC)C(=O)N(C)[C@@H](C)C(=O)N[C@H](CC(C)C)C(=O)N2CCC[C@@H]2C(=O)N(CC)CC(=O)N[C@@H](CC(C)C)C(=O)N(C)[C@H](C)C(=O)N[C@@H](CC(C)C)C(=O)N1C: -0.0699
CC(C)C[C@@H]1NC(=O)[C@H](CC(C)C)NC(=O)[C@H](CC(C)C)NC(=O)[C@H](C(C)C)NC(=O)[C@H](C(C)C)NC(=O)[C@H](Cc2cscn2)NC(=O)[C@H](C)NC1=O: -0.474

Study 5
Species: mouse
Sample: microsomes or S9
Tested at: 2 µM
Time: 0.5 h
Measurement: remaining compound
Cc1nnc(C[S+]([O-])c2ccc(Cl)c(Cl)c2)n1C (centres unmarked): > 100%
CN1C[C@H](NC(=O)CC2=C(c3ccccc3)CCC2=O)C[C@H]1C(=O)O: 94.3%
COc1ccc(C2CC(O)=Nc3c(C(=O)O)cn(-c4cc(F)cc(F)c4)c32)c(OC)c1OC (centres unmarked): 96%
O=c1cc(CSC2CCCCC2)nc2sc3c(n12)CCCC3: 0.117%

Study 6
Organism: Sarcocystis neurona
Read-out: parasite growth
Tested at: 10 µM
Measurement: inhibition
C[C@H]1O[C@@H](O[C@H]2[C@@H](O)C[C@H](O[C@H]3[C@@H](O)C[C@H](O[C@H]4CC[C@@]5(C)[C@H](CC[C@@H]6[C@@H]5C[C@@H](O)[C@]5(C)[C@@H](C7=CC(=O)OC7)CC[C@]65O)C4)O[C@@H]3C)O[C@@H]2C)C[C@H](O)[C@@H]1O: 49%
Clc1ccc(COC(Cn2ccnc2)c2ccc(Cl)cc2Cl)c(Cl)c1 (centres unmarked): 54.2%
C[C@H]1[C@H](OC(=O)CCC(=O)O)O[C@@H]2O[C@@]3(C)CC[C@H]4[C@H](C)CC[C@@H]1[C@@]24OO3: 84.2%
CCCN(CCC)S(=O)(=O)c1ccc(C(=O)O)cc1: -26.8%

Study 7
Structure (SMILES): CC(C)C[C@@H]1NC(=O)[C@@H](N(C)C(=O)[C@H](CC2CCC2)NC(=O)[C@@H]2C[C@@H](F)CN2C(=O)C2(C(F)(F)F)CC(F)(F)C2)CCCCNC(=O)C2(CC2)NC(=O)[C@H](Cc2cc(Cl)ccc2Cl)N(C)C1=O
Technique: PI flow cytometry
Time: 24 h
Measurement: G1 phase cells
A549; 20 nM: 59.5% and 59.2% and 66.8%
A549; 2000 nM: 56.3% and 41.1% and 45.8%
NCI-H1299; 200 nM: 58.6% and 61.3% and 62.6%
NCI-H446; 200 nM: 22.7% and 23.2% and 22.6%

Mixed results
CC(C)n1cnc(-c2ccc(F)cc2)c1-c1ncc(C(=O)Nc2ccc(N3CCN(C)CC3)cc2)[nH]1  grade 5 ventricular extrasystoles (human, idiopathic pulmonary fibrosis; 60 mg once daily, trial, treatment-emergent): 0%
CN1CC[C@H](c2c(O)cc(O)c3c(=O)cc(-c4ccccc4Cl)oc23)[C@H](O)C1  mRNA level (HuT78; qPCR, item: RARA; concentration not given, 12 h, unit not given; baseline: untreated control): 0.687 and 0.88 and 0.901

Repeated from above (study 1):
PRKACA (Homo sapiens, UniProt P17612); cell-free assay: 75%
FLT3 (Homo sapiens, UniProt P36888, R834Q); cell-free assay: 92%
PIKFYVE (Homo sapiens, UniProt Q9Y2I7); cell-free assay: 75%
MAP3K11 (Homo sapiens, UniProt Q16584); cell-free assay: 100%
Tyrosine-protein kinase ABL1, non-phosphorylated (ABL1, Homo sapiens, UniProt P00519, H396P); cell-free assay: 87%
PAK2 (Homo sapiens, UniProt Q13177); cell-free assay: 60%
